Measurements gathered from unrelated publications.
± gives the spread as reported. Converted amounts (≈) assume the structure as drawn.

Amino acid sequences for entries named in this document (tags omitted). Residues count along the entry.
UniProt Q62645, 28-1323 limits assumed: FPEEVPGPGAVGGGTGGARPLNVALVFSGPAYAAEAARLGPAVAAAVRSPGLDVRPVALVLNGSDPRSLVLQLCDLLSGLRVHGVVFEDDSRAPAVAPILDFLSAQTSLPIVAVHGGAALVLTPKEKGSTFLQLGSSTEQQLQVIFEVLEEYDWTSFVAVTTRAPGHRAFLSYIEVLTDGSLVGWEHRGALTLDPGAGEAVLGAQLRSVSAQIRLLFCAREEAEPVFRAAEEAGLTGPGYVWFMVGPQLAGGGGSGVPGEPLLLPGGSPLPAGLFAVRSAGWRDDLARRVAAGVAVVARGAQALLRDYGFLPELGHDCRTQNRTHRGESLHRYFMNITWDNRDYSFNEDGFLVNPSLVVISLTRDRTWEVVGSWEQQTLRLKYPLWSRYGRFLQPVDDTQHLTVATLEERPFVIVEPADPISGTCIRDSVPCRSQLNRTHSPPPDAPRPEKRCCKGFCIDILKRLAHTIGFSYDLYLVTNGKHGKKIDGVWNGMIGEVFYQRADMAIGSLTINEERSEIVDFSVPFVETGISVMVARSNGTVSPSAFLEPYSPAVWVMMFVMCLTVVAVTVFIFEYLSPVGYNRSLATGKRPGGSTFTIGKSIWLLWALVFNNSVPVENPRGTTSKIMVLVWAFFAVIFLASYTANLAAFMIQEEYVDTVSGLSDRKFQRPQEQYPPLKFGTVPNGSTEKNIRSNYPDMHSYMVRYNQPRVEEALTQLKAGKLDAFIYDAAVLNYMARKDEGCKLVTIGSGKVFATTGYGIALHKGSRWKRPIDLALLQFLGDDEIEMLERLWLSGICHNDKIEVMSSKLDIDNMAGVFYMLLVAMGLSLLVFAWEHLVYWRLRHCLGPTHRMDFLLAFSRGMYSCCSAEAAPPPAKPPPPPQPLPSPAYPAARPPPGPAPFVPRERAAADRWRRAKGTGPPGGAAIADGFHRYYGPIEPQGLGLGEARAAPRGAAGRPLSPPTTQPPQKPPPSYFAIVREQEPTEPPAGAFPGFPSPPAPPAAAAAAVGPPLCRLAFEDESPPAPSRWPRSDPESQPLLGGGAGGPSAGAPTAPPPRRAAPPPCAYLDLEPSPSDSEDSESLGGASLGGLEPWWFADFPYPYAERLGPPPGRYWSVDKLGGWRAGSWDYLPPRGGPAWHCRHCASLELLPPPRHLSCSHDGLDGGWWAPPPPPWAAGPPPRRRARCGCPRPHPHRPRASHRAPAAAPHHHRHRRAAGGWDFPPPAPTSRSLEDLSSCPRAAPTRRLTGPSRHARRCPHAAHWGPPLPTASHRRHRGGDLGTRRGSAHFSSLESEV
UniProt P41143, whole entry: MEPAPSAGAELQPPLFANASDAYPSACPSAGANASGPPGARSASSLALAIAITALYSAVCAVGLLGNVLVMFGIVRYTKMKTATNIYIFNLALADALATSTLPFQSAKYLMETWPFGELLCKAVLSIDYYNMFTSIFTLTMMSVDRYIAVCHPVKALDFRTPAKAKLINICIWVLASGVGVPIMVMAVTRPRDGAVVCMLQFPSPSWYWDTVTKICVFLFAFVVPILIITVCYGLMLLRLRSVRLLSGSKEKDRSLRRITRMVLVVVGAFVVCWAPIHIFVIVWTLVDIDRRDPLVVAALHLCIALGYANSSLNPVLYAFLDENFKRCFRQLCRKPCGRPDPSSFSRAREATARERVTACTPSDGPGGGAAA
UniProt Q16620, whole entry, looked up: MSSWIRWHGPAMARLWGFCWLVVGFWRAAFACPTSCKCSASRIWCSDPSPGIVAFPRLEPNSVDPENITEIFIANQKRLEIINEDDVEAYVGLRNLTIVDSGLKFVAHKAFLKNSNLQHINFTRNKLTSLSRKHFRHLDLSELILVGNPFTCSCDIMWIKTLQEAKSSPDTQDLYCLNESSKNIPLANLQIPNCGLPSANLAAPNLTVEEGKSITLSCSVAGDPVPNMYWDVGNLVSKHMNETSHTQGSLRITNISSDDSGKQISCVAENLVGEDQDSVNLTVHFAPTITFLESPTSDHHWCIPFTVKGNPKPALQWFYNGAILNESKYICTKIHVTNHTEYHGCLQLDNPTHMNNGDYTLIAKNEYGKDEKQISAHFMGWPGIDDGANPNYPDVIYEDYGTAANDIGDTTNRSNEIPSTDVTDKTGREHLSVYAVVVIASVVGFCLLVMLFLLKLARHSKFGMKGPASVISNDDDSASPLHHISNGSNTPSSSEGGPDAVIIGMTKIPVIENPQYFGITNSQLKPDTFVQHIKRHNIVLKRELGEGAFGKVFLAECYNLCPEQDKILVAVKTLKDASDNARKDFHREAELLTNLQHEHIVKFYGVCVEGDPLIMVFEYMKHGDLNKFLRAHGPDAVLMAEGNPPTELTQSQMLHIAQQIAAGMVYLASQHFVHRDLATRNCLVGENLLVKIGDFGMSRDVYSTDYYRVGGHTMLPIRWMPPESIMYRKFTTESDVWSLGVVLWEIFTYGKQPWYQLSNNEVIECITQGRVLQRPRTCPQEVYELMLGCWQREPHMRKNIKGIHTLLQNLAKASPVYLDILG
UniProt P08172, whole entry: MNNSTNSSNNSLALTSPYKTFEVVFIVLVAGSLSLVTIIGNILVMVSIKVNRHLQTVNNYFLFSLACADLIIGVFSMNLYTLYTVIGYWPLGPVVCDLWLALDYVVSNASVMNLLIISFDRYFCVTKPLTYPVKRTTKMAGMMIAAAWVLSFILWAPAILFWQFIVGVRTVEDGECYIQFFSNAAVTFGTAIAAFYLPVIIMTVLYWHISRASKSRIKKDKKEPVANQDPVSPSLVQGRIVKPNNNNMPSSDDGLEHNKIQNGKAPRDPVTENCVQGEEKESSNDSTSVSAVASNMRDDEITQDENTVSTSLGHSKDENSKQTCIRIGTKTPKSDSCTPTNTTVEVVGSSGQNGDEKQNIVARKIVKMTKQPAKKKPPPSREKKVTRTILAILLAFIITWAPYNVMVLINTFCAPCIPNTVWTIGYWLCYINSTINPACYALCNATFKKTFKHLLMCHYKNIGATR
UniProt P41145, whole entry: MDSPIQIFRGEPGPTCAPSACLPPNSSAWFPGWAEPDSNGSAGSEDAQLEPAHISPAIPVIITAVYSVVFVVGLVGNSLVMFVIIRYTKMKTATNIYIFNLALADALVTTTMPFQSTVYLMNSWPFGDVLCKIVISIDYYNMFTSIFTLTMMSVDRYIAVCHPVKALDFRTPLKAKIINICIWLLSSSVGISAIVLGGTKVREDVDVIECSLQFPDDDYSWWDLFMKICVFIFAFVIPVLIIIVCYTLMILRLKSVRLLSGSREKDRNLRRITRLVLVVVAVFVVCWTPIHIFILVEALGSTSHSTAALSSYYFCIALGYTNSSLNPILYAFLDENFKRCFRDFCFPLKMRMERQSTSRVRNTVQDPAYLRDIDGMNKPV
UniProt P29317, whole entry, looked up: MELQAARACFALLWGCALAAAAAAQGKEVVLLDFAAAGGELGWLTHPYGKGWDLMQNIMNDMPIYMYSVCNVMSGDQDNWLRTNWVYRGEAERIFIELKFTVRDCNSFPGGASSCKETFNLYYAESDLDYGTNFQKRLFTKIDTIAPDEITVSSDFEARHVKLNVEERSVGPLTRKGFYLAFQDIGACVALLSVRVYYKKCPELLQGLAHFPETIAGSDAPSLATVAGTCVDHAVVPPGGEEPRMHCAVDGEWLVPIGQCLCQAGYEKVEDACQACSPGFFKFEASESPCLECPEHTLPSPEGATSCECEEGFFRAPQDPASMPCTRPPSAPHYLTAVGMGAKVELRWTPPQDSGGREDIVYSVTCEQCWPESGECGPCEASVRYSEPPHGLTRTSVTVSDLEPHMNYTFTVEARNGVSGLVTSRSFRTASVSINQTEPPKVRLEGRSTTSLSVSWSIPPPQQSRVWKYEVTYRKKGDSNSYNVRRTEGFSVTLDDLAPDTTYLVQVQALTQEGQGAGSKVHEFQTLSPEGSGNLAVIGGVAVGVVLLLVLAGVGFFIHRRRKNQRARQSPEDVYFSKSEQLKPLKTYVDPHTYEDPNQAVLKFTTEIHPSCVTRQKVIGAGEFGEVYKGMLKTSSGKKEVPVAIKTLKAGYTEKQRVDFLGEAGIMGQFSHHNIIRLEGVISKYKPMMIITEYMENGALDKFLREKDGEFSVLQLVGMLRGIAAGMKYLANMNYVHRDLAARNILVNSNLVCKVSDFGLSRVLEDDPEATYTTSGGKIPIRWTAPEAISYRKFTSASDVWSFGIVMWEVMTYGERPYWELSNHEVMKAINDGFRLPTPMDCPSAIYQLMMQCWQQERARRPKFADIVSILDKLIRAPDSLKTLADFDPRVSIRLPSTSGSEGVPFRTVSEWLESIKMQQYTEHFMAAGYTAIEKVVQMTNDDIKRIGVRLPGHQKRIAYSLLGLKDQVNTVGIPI
UniProt P67660, whole entry M154V, looked up: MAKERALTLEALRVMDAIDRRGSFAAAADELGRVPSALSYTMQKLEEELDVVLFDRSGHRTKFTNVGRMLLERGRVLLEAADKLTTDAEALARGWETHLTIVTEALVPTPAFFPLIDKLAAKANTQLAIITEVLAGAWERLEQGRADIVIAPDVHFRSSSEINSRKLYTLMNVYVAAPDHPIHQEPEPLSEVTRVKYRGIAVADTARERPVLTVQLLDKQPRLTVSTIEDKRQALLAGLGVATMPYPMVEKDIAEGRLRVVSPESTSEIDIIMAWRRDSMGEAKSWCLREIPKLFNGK
UniProt P0ADG7, whole entry S250A/L444Y: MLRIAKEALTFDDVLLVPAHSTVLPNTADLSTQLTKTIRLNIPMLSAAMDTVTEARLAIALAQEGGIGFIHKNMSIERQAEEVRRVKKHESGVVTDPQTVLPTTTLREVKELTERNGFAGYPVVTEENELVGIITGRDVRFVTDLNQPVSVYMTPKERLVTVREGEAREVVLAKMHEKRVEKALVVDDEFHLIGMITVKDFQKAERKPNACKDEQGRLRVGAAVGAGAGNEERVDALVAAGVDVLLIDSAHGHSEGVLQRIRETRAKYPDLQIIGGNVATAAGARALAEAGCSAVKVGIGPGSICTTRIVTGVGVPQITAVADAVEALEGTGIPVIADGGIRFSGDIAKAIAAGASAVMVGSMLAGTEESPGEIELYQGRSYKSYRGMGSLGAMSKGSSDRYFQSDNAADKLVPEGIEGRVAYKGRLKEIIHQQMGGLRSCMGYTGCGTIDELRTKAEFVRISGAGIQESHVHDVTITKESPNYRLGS
UniProt Q9BJF5, 1-507: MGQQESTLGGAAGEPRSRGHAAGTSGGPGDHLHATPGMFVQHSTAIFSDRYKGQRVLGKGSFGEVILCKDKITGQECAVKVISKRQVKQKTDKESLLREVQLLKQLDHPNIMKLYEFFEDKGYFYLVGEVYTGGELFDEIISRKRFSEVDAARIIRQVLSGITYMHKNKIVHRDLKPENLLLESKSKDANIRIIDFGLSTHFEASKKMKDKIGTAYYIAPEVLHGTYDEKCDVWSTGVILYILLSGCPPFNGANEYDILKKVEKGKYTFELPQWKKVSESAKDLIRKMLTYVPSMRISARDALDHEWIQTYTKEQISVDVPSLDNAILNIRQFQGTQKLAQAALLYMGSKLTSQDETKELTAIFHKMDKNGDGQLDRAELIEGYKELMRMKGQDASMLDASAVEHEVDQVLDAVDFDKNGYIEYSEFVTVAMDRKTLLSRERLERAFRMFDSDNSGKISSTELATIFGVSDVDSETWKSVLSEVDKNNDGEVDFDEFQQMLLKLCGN
UniProt P06276, 29-602 limits assumed: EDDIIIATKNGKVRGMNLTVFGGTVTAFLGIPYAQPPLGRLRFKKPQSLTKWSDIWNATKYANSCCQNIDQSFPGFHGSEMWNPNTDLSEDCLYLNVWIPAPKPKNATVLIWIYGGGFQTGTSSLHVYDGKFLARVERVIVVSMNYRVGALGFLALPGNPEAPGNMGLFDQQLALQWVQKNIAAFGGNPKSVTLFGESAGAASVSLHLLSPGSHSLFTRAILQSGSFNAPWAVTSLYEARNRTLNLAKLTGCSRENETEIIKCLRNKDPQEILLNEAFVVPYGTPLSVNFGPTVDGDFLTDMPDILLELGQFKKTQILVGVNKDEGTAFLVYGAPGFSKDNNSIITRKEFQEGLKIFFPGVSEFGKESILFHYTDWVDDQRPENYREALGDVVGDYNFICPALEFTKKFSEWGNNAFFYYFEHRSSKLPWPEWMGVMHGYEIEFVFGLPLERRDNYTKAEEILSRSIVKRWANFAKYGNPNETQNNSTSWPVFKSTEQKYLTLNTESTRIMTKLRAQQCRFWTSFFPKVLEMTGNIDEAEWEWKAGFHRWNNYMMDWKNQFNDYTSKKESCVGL
UniProt P35372, whole entry: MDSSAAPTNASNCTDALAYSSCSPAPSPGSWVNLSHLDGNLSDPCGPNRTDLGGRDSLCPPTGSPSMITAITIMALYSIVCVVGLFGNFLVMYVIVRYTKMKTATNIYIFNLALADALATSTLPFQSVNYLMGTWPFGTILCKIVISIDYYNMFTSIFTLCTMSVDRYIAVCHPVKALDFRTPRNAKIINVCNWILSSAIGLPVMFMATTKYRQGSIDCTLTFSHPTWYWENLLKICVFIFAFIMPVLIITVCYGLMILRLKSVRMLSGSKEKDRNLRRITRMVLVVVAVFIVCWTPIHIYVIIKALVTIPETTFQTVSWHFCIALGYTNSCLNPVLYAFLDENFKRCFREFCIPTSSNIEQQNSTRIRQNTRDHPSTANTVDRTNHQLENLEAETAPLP

SMILES | target or system | test | system | conditions | quantity | value
CCN(CC)C(=O)Oc1ccc(C(=O)Nc2cccc3cc[nH]c23)cc1 | Glutamate receptor ionotropic, NMDA 2D, with GluN1 (Rattus norvegicus, UniProt Q62645) | binding | – | – | Kd | 1.2 µM
CC[C@@](O)(c1ccccc1)[C@H]1C[C@@]23C=C[C@]1(OC)[C@@H]1Oc4c(O)ccc5c4[C@@]12CCN(CC1CC1)[C@@H]3C5 | OPRD1 (Homo sapiens, UniProt P41143) | binding, radioligand displacement | CHO | added: [3H]DPDPE | Ki | 0.0012 ± 0.00014 µM
CC#C/C(=N\OC[C@H]1COCCN1)c1ccc2ncnc(Nc3ccc(OCc4cccc(F)c4)c(Cl)c3)c2c1 | NTRK2 (Homo sapiens, UniProt Q16620) | kinase activity | – | 10 µM | inhibition | 41.4%
CCCN1CCN(c2ccc3c(c2)C2CC3CCN2C(=O)OCc2ccccc2)CC1 (stereo not drawn) | CHRM2 (Homo sapiens, UniProt P08172) | binding, radioligand binding | – | – | Ki | 4.33 µM
CO[C@]12CC[C@@]3(C[C@@H]1[C@](C)(O)c1cc(C)cc(C)c1)[C@H]1Cc4ccc(O)c5c4[C@@]3(CCN1CC1CC1)[C@H]2O5 | OPRK1 (Homo sapiens, UniProt P41145) | binding, radioligand displacement | CHO | added: [3H]diprenorphine | Ki | 0.0001 ± 4e-05 µM
CCN1CCN(Cc2ccc(NC(=O)c3ccc(C)c(/C=C/c4cnc5[nH]ccc5c4OC)c3)cc2C(F)(F)F)CC1 | EPHA2 (Homo sapiens, UniProt P29317) | CDC37 binding, inhibitor, LUMIER | – | – | EC50 | 0.038 µM
Cc1cc(O)ccc1O | Probable HTH-type transcriptional regulator YhaJ, effector-binding domain (yhaJ, Escherichia coli, UniProt P67660, M154V) | microscale thermophoresis | – | pH 7.5 | Kd | 8400 ± 2400 µM
CCOc1ccc2cc(-c3nn(CC4CCN(C)CC4)c4ncnc(N)c34)ccc2n1 | – | – | – | concentration not given, rat | half-life | > 2 h
Cn1c([N+](=O)[O-])cnc1COc1ccc2nc3ccc(=O)cc-3oc2c1 | Mycobacterium tuberculosis | – | mc2 6206 PA-824-resistant ddn mutant | 7 days | MIC90 | > 256 µM
CSc1nc(Cl)cc(Sc2nnc(-c3cc(C(F)(F)F)cc(C(F)(F)F)c3)[nH]2)n1 | Acinetobacter baumannii | – | ATCC 9955 | added: NAB7061 4 µg/mL | MIC | 1.5 µg/mL (≈ 3.18 µM)
O=C(Cn1c(-c2ccccn2)nc2ccccc21)Nc1ccc2ccccc2c1 | guaB (Escherichia coli K-12, UniProt P0ADG7, L444Y/S250A) | enzyme activity, inhibitor | – | corrected for open conformation | IC50 | 0.0006 µM
CCOc1ccc2cc(-c3nn(C(C)(C)CCO)c(N)c3C(N)=O)ccc2c1 | CDPK1 (Toxoplasma gondii, UniProt Q9BJF5) | kinase activity, inhibitor | – | – | IC50 | 0.0002 µM
CCN(CC)c1ccc2c(O)c(C=Nc3ccc(CC(=O)NNc4c5c(nc6ccccc46)CCCC5)cc3)c(=O)oc2c1 | Cholinesterase (BCHE, Homo sapiens, UniProt P06276) | enzyme activity, inhibitor | – | – | IC50 | 0.39 ± 0.04 µM
CO[C@]12CC[C@@]3(C[C@@H]1[C@H](O)c1ccccc1)[C@H]1Cc4ccc(O)c5c4[C@@]3(CCN1CC1CC1)[C@H]2O5 | OPRM1 (Homo sapiens, UniProt P35372) | binding, radioligand displacement | CHO | added: [3H]DAMGO | Ki | 0.0013 ± 0.00039 µM
CCCCCCC1c2ccc(O)cc2Oc2cc(O)ccc21 | Acinetobacter baumannii | – | ATCC 9955 | added: NAB7061 4 µg/mL | MIC | 4.7 µg/mL (≈ 15.8 µM)
